Measurements of several laboratories.
Compare with care: the assays were run in different laboratories. Numbers after ± are the reported error.
Method: steady-state kinetics
B1: oxdC (Bacillus subtilis, UniProt O34714); chain MKKQNDIPQPIRGDKGATVKIPRNIERDRQNPDMLVPPETDHGTVSNMKFSFSDTHNRLEKGGYAREVTVRELPISENLASVNMRLKPGAIRELHWHKEAEWAYMIYGSARVTIVDEKGRSFIDDVGEGDLWYFPSGLPHSIQALEEGAEFLLVFDDGSFSENSTFQLTDWLAHTPKEVIAANFGVTKEEISNLPGKEKYIFENQLPGSLKDDIVEGPNGEVPYPFTYRLLEQEPIESEGGKVYIADSTNFKVSKTIASALVTVEPGAMRELHWHPNTHEWQYYISGKARMTVFASDGHARTFNYQAGDVGYVPFAMGHYVENIGDEPLVFLEIFKDDHYADVSLNQWLAMLPETFVQAHLDLGKDFTDVLSKEKHPVVKKKCSK
B2: enzyme (Leishmania major, UniProt E9AE57); chain MSLCDQCEIGCRRVGIKDIEDASAVNADFHFSAIFQPTDPHHHQTEFAKVEGSEKYVEEVEVFGRQALKVNPEALTILAHRAFSDVHHFFRKDHLEGWRRAIEDPEASDNDRYVATTLLKNACIAAGRVLPSCQDTGTAIVLGKRGELCWTGGEDEKYLSKGIWNAYRYHNLRYSQTAALDMFKECNTGDNLPAQLDLLAVPGSDYEFLFIAKGGGSANKAYLYQETKALLNPKSLRAFIEEKLKTLGTAACPPYHIALVIGGTSAEMTMKTVKLASCRYYDSLPTTGDKYGRAFRDPEWEKIVMEVAQKSGIGAQFGGKYFAHQARVIRLPRHGASCPVGLAVSCSADRQILAHINKSGIYIEQLEQNPAQYLPDIPEVHLSTTSVKVDLKRPIDKVRQQLSQYPVGTRVMLNGTLIVARDIAHAKIKEMMDNGEPLPEYMKTSPIYYAGPAKTPEGYASGSFGPTTAGRMDSYVDLFQSHGGSYITLAKGNRSKQVTDACKKHGGFYLGSIGGPAAILAKDSIKQVTCLAFPELGMEAVWKIEVEDFPAFIVVDDKGNDMYSKTLA
B3: GTPBP3 A162P (Homo sapiens, UniProt Q969Y2); chain TRRSSGAPAPGSGATIFALSSGQGRCGIAVIRTSGPASGHALRILTAPRDLPLARHASLRLLSDPRSGEPLDRALVLWFPGPQSFTGEDCVEFHVHGGPAVVSGVLQALGSVPGLRPAEAGEFTRRAFANGKLNLTEVEGLPDLIHAETEAQRRQALRQLDGELGHLCRGWAETLTKALAHVEAYIDFGEDDNLEEGVLEQADIEVRALQVALGAHLRDARRGQRLRSGVHVVVTGPPNAGKSSLVNLLSRKPVSIVSPEPGTTRDVLETPVDLAGFPVLLSDTAGLREGVGPVEQEGVRRARERLEQADLILAMLDASDLASPSSCNFLATVVASVGAQSPSDSSQRLLLVLNKSDLLSPEGPGPGPDLPPHLLLSCLTGEGLDGLLEALRKELAAVCGDPSTDPPLLTRARHQHHLQGCLDALGHYKQSKDLALAAEALRVARGHLTRLTGGGGTEEILDIIFQDFCVGK
B4: alanine racemase H166A (Geobacillus stearothermophilus, UniProt P10724); chain MNDFHRDTWAEVDLDAIYDNVENLRRLLPDDTHIMAVVKANAYGHGDVQVARTALEAGASRLAVAFLDEALALREKGIEAPILVLGASRPADAALAAQQRIALTVFRSDWLEEASALYSGPFPIHFHLKMDTGMGRLGVKDEEETKRIVALIERHPHFVLEGLYTAFATADEVNTDYFSYQYTRFLHMLEWLPSRPPLVHCANSAASLRFPDRTFNMVRFGIAMYGLAPSPGIKPLLPYPLKEAFSLHSRLVHVKKLQPGEKVSYGATYTAQTEEWIGTIPIGYADGWLRRLQHFHVLVDGQKAPIVGRICMDQCMIRLPGPLPVGTKVTLIGRQGDEVISIDDVARHLETINYEVPCTISYRVPRIFFRHKRIMEVRNAIGRGESSA
B5: ASRGL1 (Homo sapiens, UniProt Q7L266); chain 1 MNPIVVVHGGGAGPISKDRKERVHQGMVRAATVGYGILREGGSAVDAVEGAVVALEDDPEFNAGCGSVLNTNGEVEMDASIMDGKDLSAGAVSAVQCIANPIKLARLVMEKTPHCFLTDQGAAQFAAAMGVPEIPGEKLVTERNKKRLEKEKHEKGAQKTDCQKNLG; chain 2 TVGAVALDCKGNVAYATSTGGIVNKMVGRVGDSPCLGAGGYADNDIGAVSTTGHGESILKVNLARLTLFHIEQGKTVEEAADLSLGYMKSRVKGLGGLIVVSKTGDWVAKWTSTSMPWAAAKDGKLHFGIDPDDTTITDLP
B6: SULT2A1 (Homo sapiens, UniProt Q06520); chain MSDDFLWFEGIAFPTMGFRSETLRKVRDEFVIRDEDVIILTYPKSGTNWLAEILCLMHSKGDAKWIQSVPIWERSPWVESEIGYTALSETESPRLFSSHLPIQLFPKSFFSSKAKVIYLMRNPRDVLVSGYFFWKNMKFIKKPKSWEEYFEWFCQGTVLYGSWFDHIHGWMPMREEKNFLLLSYEELKQDTGRTIEKICQFLGKTLEPEELNLILKNSSFQSMKENKMSNYSLLSVDYVVDKAQLLRKGVSGDWKNHFTVAQAEDFDKLFQEKMADLPRELFPWE
B7: PRP43 (Saccharomyces cerevisiae, UniProt P53131); chain MGSKRRFSSEHPDPVETSIPEQAAEIAEELSKQHPLPSEEPLVHHDAGEFKGLQRHHTSAEEAQKLEDGKINPFTGREFTPKYVDILKIRRELPVHAQRDEFLKLYQNNQIMVFVGETGSGKTTQIPQFVLFDEMPHLENTQVACTQPRRVAAMSVAQRVAEEMDVKLGEEVGYSIRFENKTSNKTILKYMTDGMLLREAMEDHDLSRYSCIILDEAHERTLATDILMGLLKQVVKRRPDLKIIIMSATLDAEKFQRYFNDAPLLAVPGRTYPVELYYTPEFQRDYLDSAIRTVLQIHATEEAGDILLFLTGEDEIEDAVRKISLEGDQLVREEGCGPLSVYPLYGSLPPHQQQRIFEPAPESHNGRPGRKVVISTNIAETSLTIDGIVYVVDPGFSKQKVYNPRIRVESLLVSPISKASAQQRAGRAGRTRPGKCFRLYTEEAFQKELIEQSYPEILRSNLSSTVLELKKLGIDDLVHFDFMDPPAPETMMRALEELNYLACLDDEGNLTPLGRLASQFPLDPMLAVMLIGSFEFQCSQEILTIVAMLSVPNVFIRPTKDKKRADDAKNIFAHPDGDHITLLNVYHAFKSDEAYEYGIHKWCRDHYLNYRSLSAADNIRSQLERLMNRYNLELNTTDYESPKYFDNIRKALASGFFMQVAKKRSGAKGYITVKDNQDVLIHPSTVLGHDAEWVIYNEFVLTSKNYIRTVTSVRPEWLIEIAPAYYDLSNFQKGDVKLSLERIKEKVDRLNELKQGKNKKKSKHSKK
UniProt P22304, sequence (whole entry, looked up): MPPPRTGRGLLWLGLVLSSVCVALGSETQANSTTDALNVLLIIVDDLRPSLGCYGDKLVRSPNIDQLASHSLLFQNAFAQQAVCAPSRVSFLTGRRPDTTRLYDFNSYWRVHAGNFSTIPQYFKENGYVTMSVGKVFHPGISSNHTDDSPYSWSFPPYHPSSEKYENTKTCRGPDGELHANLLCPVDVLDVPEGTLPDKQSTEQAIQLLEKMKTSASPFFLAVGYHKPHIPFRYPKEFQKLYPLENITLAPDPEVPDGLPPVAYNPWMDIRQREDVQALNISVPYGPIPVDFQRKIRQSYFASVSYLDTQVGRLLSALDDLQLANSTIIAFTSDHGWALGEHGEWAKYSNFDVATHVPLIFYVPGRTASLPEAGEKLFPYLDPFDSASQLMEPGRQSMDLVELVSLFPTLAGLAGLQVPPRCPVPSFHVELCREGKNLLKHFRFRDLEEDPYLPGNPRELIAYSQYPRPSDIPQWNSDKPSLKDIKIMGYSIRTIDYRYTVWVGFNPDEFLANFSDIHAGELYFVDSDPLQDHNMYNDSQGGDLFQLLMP
UniProt Q9UYB2, sequence (whole entry, looked up): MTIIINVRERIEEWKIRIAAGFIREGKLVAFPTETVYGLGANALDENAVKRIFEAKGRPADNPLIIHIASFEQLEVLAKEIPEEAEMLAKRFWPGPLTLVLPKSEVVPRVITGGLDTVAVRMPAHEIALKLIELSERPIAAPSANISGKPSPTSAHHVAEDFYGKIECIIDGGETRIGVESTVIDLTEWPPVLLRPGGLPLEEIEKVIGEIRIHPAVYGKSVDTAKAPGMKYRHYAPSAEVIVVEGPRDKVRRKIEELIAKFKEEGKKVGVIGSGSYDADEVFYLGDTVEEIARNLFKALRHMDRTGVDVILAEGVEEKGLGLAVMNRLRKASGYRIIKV
UniProt Q9K499, sequence (whole entry, looked up): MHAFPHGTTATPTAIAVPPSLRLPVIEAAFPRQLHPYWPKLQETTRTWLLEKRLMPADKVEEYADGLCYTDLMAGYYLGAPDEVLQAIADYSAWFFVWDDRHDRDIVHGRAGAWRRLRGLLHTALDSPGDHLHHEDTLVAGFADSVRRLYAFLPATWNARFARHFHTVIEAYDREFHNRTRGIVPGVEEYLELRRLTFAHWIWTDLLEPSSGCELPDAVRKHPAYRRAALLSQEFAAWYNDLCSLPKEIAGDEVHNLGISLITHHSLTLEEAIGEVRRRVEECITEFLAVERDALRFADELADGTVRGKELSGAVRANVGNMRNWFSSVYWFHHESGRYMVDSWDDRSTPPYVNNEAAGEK
UniProt P07914, sequence (whole entry, looked up): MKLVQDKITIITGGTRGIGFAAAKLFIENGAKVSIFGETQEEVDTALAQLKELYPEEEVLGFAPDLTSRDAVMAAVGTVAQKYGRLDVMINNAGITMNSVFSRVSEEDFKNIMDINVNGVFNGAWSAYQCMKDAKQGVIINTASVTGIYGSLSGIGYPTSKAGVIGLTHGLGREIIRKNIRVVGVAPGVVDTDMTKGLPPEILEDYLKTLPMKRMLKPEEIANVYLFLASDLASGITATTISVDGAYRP
UniProt A8M783, sequence (whole entry, looked up): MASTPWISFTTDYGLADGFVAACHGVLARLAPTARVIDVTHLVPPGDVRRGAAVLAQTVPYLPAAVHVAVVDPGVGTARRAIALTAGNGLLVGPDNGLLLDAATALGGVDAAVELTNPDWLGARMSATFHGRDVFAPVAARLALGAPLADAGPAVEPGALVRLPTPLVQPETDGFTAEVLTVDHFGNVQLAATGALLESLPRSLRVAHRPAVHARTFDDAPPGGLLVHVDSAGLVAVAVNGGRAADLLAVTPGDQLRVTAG

The kcat of `cyc1 (Streptomyces coelicolor, UniProt Q9K499)` is reported as 0.084 ± 0.001 s⁻¹ (CC(C)=CCC/C(C)=C/CC/C(C)=C/CO[P@@](=O)(O)OP(=O)(O)O; pH 6.5, 30 °C, together with: MgCl2 10 mM).
With `LovD A190T/A86V/C40A/C60N/D12G/G275S (Aspergillus terreus)` the kcat was 0.031 ± 0.0015 s⁻¹ (CCC(C)(C)C(=O)SCCC(=O)OC; 25 °C, 10% DMSO, together with: 2 mM MJA).
The kcat of `B1 (oxdC)` is reported as 30 ± 1 s⁻¹ (O=C(O)C(=O)O; pH 4.2, 25 °C).
The kcat of `trypsin (Saccharopolyspora erythraea, UniProt Q54137)` is reported as 3.15 ± 0.07 s⁻¹ (N=C(N)NCCC[C@H](NC(=O)c1ccccc1)C(=O)Nc1ccc([N+](=O)[O-])cc1; pH 8, 25 °C).
For `protein (Shewanella denitrificans, UniProt Q12KT8)`, the kcat was 4.4 ± 0.3 s⁻¹ (Cc1cn([C@H]2C[C@H](O)[C@@H](COP(=O)(O)OP(=O)(O)O[C@H]3O[C@H](C)C(=O)[C@H](O)[C@H]3O)O2)c(=O)[nH]c1=O; pH 7.5, together with: NADPH 0.2 mM).
With `B2 (enzyme)` the kcat was 537 ± 7 s⁻¹ (O=C(O)C[C@H](O)C(=O)O).
`B3 (GTPBP3 A162P)` gave a kcat of 0.0155 ± 0.002 s⁻¹ (Nc1nc2c(ncn2[C@@H]2O[C@H](COP(=O)(O)OP(=O)(O)OP(=O)(O)O)[C@@H](O)[C@H]2O)c(=O)[nH]1; pH 8, 37 °C, KCl 300 mM).
`Sua5 (Pyrococcus abyssi, UniProt Q9UYB2)` gave a kcat of 0.029 ± 0.001 s⁻¹ (Nc1ncnc2c1ncn2[C@@H]1O[C@H](COP(=O)(O)OP(=O)(O)OP(=O)(O)O)[C@@H](O)[C@H]1O; pH 8, 50 °C, together with: L-threonine, ATP 5–500 µM, MnCl2 1 mM, MgCl2 10 mM).
For `BaiA1 (Clostridium scindens, UniProt P07914)`, the kcat was 0.55 s⁻¹ (C[C@H](CCC(=O)SCCNC(=O)CCNC(=O)[C@H](O)C(C)(C)COP(=O)(O)OP(=O)(O)OC[C@H]1O[C@@H](n2cnc3c(N)ncnc32)[C@H](O)[C@@H]1OP(=O)(O)O)[C@H]1CC[C@H]2[C@@H]3[C@H](O)C[C@@H]4CC(=O)CC[C@]4(C)[C@H]3C[C@H](O)[C@]12C; pH 8.7, 37 °C, together with: NADH).
With `AphC (Rhodococcus jostii, UniProt Q0S9X1)` the kcat was 0.293 s⁻¹ (Cc1ccc(O)c(O)c1; pH 8, 25 °C, apparent, together with: O2).
`protein (Salinispora arenicola, UniProt A8M783)` gave a kcat of 0.000139 s⁻¹ (I; pH 7.9, 37 °C, apparent, together with: SAM).
With `B4 (alanine racemase H166A)` the kcat was 3.5 s⁻¹ (C[C@@H](N)C(=O)O; pH 9, room temperature, together with: NAD+ 10 mM).
`B5 (ASRGL1)` has a kcat of 5.3 ± 0.4 s⁻¹ (NCCCC[C@H](NC(=O)C[C@H](N)C(=O)O)C(=O)O; pH 7.4, 37 °C, NaCl 100 mM).
`protein (Actinidia chinensis, UniProt H9M5U5)` gave a kcat of 0.13 ± 0.002 s⁻¹ (CC(C)=CCC/C(C)=C/COP(=O)(O)OP(=O)(O)O; pH 7.5, room temperature, labelled compound, together with: MgCl2 20 mM).
For `IDS (Homo sapiens, UniProt P22304)`, the kcat was 112 ± 14.7 s⁻¹ (Cc1cc(=O)oc2cc(O[C@@H]3O[C@@H](C(=O)O)[C@@H](O)[C@H](O)[C@H]3OS(=O)(=O)O)ccc12; pH 5.5).
`protein (Clostridioides difficile, UniProt Q18B70)` has a kcat of 7.97 s⁻¹ (CC(=O)SCCNC(=O)CCNC(=O)[C@H](O)C(C)(C)COP(=O)(O)OP(=O)(O)OC[C@H]1O[C@@H](n2cnc3c(N)ncnc32)[C@H](O)[C@@H]1OP(=O)(O)O; pH 8, 37 °C, together with: L-Thr 10 mM, AcCoA 0-2 mM).
With `B6 (SULT2A1)` the kcat was 0.7 s⁻¹ (C[C@]12CC[C@H](O)CC1=CC[C@@H]1[C@@H]2CC[C@]2(C)C(=O)CC[C@@H]12; pH 7.4, 25 °C).
`B7 (PRP43)` has a kcat of 9.7 ± 0.4 s⁻¹ (O=c1ccn([C@@H]2O[C@H](COP(=O)(O)OP(=O)(O)OP(=O)(O)O)[C@@H](O)[C@H]2O)c(=O)[nH]1; pH 8).

For quick reference, copied from above:
The kcat of `cyc1 (Streptomyces coelicolor, UniProt Q9K499)` is reported as 0.084 ± 0.001 s⁻¹ (CC(C)=CCC/C(C)=C/CC/C(C)=C/CO[P@@](=O)(O)OP(=O)(O)O; pH 6.5, 30 °C, together with: MgCl2 10 mM).
